# Experimental data collected from several papers.
# Numbered parts are unrelated; each lists some results of a single study.

# Series 1 — method: RNA Bind-n-Seq; form: RNA; sample: in vitro; concentration: 365 nM; reference: no-protein control; reading: higher = stronger binding
# Target: RNA binding protein fox-1 homolog 2, RRM domain, GST-SBP tag (RBFOX2, Homo sapiens, UniProt O43251-10, residues 100-194)
# Setting: natural RNA segment, single round, ends assumed
# All sequences stand within: GGGAGUUCUACAGUCCGACGAUC … UGGAAUUCUCGGGUGCCAA
Strand,RBNS enrichment (R)
GGGCGAAUGCGUCGCCACCCCUGACCCCGCAUCUGGAGGGCGGGGCUUUGCUUGAGAAGACCCCAGGGAGGACUGUCUUCCACUGCCUGGACUCCUCUCAAGUUGAAGUC,3.06
UCUCCAUAGGACUUUCAUAUCAUCUGCUACAUUGAAAGAAUAAGAUAUACUGAUCCUAAAACCAAGGGAAUUAACAUUCCUAAUCCUGCACUAUGAACAGAACCCUGCCC,0.512
UGCAAGACCCCGGGUCCUUGCAGCAGAGCUUCUCAUGGGUGGCUUGCUGGGGCCGGGCCGAGGACUCCUCAGAGGCGUUUCCUGCAGAGCCAUUAUUUUGACGCCUUUUU,0.472
CAUGGCAUGUGCAAGUAGGUCUGCGUGACCCCACUUCUGUGGUGCCGGCCUUACCUCGUCUUCAUCCGUGGUGAGCAGCCUUCGUCAGUCUAGUUGUGUUGAAGCCAAGU,1.22
CACAGACCGAUGCCCUUCUUACCCCAAGUUCCCAUAAACACUUGCAUGCAGAAGCACACAGGACACAGGGACCAUGUGGGAAGCAUGCUCAGCCUAGCAGAGCUGAAAGG,5.1
UGGUUUAUUGGAACAUGUAAUAAAUAGGAGUAGUGAUGUAUUAAAACACAAGUAUUCAUUAAUGUUUUAUAUCUUCACUAAAAUUCUAUAGUUAUGAAACUAUCAAUCAA,0.515
CCCCUUUGGGGAGGGAGAGACAGACGGGCGGUUUGACUUGGACACAAAGAAAGCCUUGGUUUCUAAGAGUUGCCUCCAGCCUGCUUUCUGCUUCCUCAGCUCUAUGUCUC,0.426
UUGACAUAUACCCUGGUGACUAUAACCAGUGAACUGUUCAGAGUCAGUCUUUUCGGCAAGAACUUCAGAGAACUGUGACACUGGUUAUGAUGUGAUUUUGGGGGGUUUCA,0.642

# Series 2 — method: protein binding microarray; form: double-stranded DNA, one strand shown; sample: in vitro; concentration: not given; reference: not given; reading: higher = stronger binding
# Target: Histone acetyltransferase KAT6A, both winged helices, GST fusion (KAT6A, Homo sapiens, UniProt Q92794, residues 1-181)
# Setting: 8-mer, flanks averaged, mean of 2 arrays, mostly near background
# Target sequence (chain): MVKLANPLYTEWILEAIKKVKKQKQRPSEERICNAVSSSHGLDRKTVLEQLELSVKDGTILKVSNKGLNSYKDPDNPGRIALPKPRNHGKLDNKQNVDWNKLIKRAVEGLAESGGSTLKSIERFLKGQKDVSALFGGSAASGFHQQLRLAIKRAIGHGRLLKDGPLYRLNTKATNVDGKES
Strand,E-score
CATGATCC,-0.137
GCCTTGGA,-0.118
CTATCTCC,-0.217
AGTGGCAC,-0.164
TAAGCAGA,-0.104
CGACCTAA,0.0236
AGAAACAT,0.0529
GCAATGCA,-0.0721
AAGCTGGT,-0.0644
GGGGCACA,-0.149
CCTCAAGC,-0.0637
AGAGACCG,0.0654
ACTCAACA,-0.0671
ACTTTGAG,-0.219
ACCCGTAA,0.21
ACTGCCCG,0.187

# Series 3 — method: universal PBM; form: double-stranded DNA, one strand shown; sample: in vitro; concentration: not given; reading: higher = stronger binding
# Target: Sal-like protein 4, full length isoform B (SALL4, Homo sapiens, UniProt Q9UJQ4-2, residues 1-616)
# Setting: 8-mer, flanks averaged, mean of replicates
# Residues (chain): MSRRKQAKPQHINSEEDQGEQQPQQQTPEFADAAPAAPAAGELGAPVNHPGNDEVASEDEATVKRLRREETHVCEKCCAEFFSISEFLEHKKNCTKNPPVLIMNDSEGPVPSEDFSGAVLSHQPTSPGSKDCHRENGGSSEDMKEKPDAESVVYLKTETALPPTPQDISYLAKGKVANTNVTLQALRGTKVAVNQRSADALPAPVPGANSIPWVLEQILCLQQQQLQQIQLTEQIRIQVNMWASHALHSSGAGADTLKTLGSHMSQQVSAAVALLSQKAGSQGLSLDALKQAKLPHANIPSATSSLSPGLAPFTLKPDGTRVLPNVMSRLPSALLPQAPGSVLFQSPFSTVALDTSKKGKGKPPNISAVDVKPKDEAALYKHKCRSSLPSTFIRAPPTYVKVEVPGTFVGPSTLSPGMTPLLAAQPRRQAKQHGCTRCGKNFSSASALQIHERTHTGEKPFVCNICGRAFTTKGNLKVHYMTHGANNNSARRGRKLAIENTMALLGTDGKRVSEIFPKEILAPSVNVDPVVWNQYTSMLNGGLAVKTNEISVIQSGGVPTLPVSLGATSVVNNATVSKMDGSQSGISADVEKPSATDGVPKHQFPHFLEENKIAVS
Strand,E-score
CACTAGGG,-0.293
AATACGTA,0.277
ACGATGAA,0.139
GTAAAGGA,0.108
ACGGCCCG,-0.215
AAAACACC,-0.0793
AGGCCACT,-0.15
CTACCAGC,-0.169
TGAGTGCA,-0.022
ACCAACAT,0.179
CTTAGTCC,-0.0755
AGCCCTCG,-0.206
CCATTGTC,0.0316
CACTTGGA,0.0424
CTTAAAGA,0.0369
GGCTTGCA,-0.154
AGTTCCCG,-0.286
AAACTTGC,0.156
AGGATAAA,0.255
AAGGCAAA,0.124
CCTAAACC,-0.0375
AGCGGCCG,-0.223

# Series 4 — method: RNA Bind-n-Seq; form: RNA; sample: in vitro; concentration: 100 nM; reference: input RNA pool; reading: higher = stronger binding
# Target: RING finger protein unkempt homolog, zinc fingers 1-6, SBP tag (UNK, Homo sapiens, UniProt Q9C0B0, residues 30-357)
# Sequence of UniProt Q9C0B0 (30-357, looked up): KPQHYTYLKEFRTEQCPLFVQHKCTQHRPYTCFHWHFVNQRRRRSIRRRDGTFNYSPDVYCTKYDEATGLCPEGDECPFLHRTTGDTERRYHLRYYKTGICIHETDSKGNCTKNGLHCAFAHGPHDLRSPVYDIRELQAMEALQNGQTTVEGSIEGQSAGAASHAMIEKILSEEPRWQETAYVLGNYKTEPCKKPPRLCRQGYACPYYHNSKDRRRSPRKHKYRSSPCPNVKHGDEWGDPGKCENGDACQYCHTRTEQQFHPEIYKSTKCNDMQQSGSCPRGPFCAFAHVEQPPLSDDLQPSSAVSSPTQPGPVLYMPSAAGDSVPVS
# Setting: RNA with constant flanks, vertebrate orthologous sites, ends assumed
# All sequences stand within: GGGAGUUCUACAGUCCGACGAUC … CAACAGAGGAUUGAGCAUCA
Strand,bound/input enrichment
UUACACGUAAACUGGUAUUUUCAAACAAUAGGAAACUAUUUUUUUCUUUUUUACAGUUUAUUAUGUAUCUGGCUUGUACACGGAAGACUAAGAAGUUGAUUUGCUAAGUGUGGUCUUUGC,0.365 ratio
AAAUCUACUUCAUGCCUUGGACUCCGUACCGAACAGACACUCUAAUCGAGUACUCCUCCUUGGACGACUUUCAAAAUGCCCGUCAAACCAUCACCUACAAGCUGCCGCACCGGGUGGAUG,0.368 ratio
GUUCAUUUUGGUCUCCUCUUCCUCCAUCCCCUCUCCCGGACCCAUAUAAUUUUUUUUUAUGCAUAUUUAGUAACACUAGCUCUCCAAGUUUAAUUUAGGAAAAUGAUUCUCAAGAACAAA,3.41 ratio
UAUUCAUUUGAUUAAAAUGAUUUAGGUAAGAAACUAUUACUGUUUAUGUUUGCUUUCAGUUUGUCUUAUUUUUCAUUCAUUUUGCAAAUAUCAGUUGAAUGUGGUUUUUUAACAGAAUAG,0.319 ratio
GAUUUGGACCUUGGAGCCAAACUAGGGAGCUGGCAAAAGUAAAGCAGACCUGUAAAUUACAGCUUCAUGCAUCUGCAUAGCACAGUAAUACCACUAGCAGUUGUGUUAAAGUAUUUAUAA,0.532 ratio
AGUAACCCAAGGAUUCAGGACUGGUUUUACAAAUAUGCCAAGUAGAUACGGAGCUAACAAUAGAACUGGACAACCAAGACCAUGAUGUACUGCAAUCUAACUUAUUUUUAUGAGGAACAU,0.548 ratio
AGGAAAAAAAAAUCAGUAGAAUUCAUACUAAAGUUGAAAGGAUAUCCAAGUAUGUGUUGGUAGUUACUGAAAGAAUUAUAGCUGUUAUUGCCUUGUAUUUAUACCCUUGUUUCAGGUCUC,0.964 ratio
GGACUCUCCAUGGGGGCGGGGGCCCCGGCCCUGCCCCGGGACCCCCUGGUCAGGCCAUUUUAGCUCUACUCAUUUUUUUAACCAGUGUCCUUACCCUGUACAUACGCUUGAGAUUUGGAA,1.93 ratio

# Series 5 — method: protein-binding microarray; form: double-stranded DNA, one strand shown; sample: in vitro; concentration: 2200 nM top; setting: 60-bp whole probe; added: salmon DNA 0.4 mg/ml; reference: random background probes; reading: higher = stronger binding; all sequences stand within: GCCTAGCAC … GTCTTGATTCGCTTGACGCTGCTG
# Target: Interferon regulatory factor 7, full length, phosphomimetic (IRF7, Homo sapiens, UniProt Q92985, residues 1-503, S471D/S472D/S475D/S476D/S477D/S483D/S484D/S487D)
# Residues (chain): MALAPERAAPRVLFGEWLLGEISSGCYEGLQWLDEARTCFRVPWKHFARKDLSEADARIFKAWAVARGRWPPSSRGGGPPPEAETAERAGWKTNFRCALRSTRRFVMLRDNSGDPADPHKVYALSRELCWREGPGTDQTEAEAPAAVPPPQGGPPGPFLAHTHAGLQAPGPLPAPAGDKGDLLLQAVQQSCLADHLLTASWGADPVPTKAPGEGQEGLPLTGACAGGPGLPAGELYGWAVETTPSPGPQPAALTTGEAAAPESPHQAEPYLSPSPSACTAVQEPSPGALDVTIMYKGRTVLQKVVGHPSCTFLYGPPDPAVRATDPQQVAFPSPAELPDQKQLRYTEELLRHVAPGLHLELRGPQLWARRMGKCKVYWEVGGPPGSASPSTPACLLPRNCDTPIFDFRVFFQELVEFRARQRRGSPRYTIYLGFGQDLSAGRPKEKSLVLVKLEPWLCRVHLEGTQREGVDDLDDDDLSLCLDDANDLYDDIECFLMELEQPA
Strand,fitted relative affinity [z-score]
CCAAACCTGTGCGCCGTGCCGTGCTAG,-0.0366
GACGGACTGGACACTGCGGACGTGCTA,-0.336
TTAGGTTTCGGTTTCAGTTAGTGCTAG,13.1
TTAGAACTGCGGACTGGATTAGTGCTA,-0.71
GACGATGTCAGTATCGAGACGTGCTAG,0.0261
TTAGATAACAGTTTCGATTAGTGCTAG,4.66
TGGGAAATTCCTCTGAGGCAGTGCTAG,-0.735
TCAGATATCTTTTTCCTACTGTGCTAG,1.08
TTAGGTTCCGTTTTCGGTTAGTGCTAG,8.63
TTAGGTTTCCTTTCCCATTAGTGCTAG,4.24
ATGGCTTTGCCTTTTGCTTTGTGCTAG,0.932
GACGATCTCAGTCTCGGGACGTGCTAG,0.0666
TACGGTATCGACTATCGGGACGTGCTA,0.295
TTAGGACTGGACACTGGGTAAGTGCTA,-0.793
TCACCTCTAACTTCCCAACTGTGCTAG,1.71
TCATTTTTTGGAATGTCACTGTGCTAG,1.47
GACGGACTGCTTCTCCTTACGTGCTAG,0.806
GACGATCTCAGTATCGAGATGTGCTAG,0.157
